# Experimental data collected from several papers.
# Protocols differ between the studies behind these lines. ± marks the error that the study gave.
SMILES,technique,matrix,tested at,time,pH,setting,fraction unbound
O=C1CCC(O)=C1Cc1ccccc1,,human plasma,,,,,0.14
COc1ccc2c(c1)[C@]13CCCC[C@@H]1[C@H](C2)N(C)CC3,rapid equilibrium dialysis,rat plasma,2 µM,6 h,pH 7.4,,0.39
c1ccc(CCc2nnn[nH]2)cc1,,human plasma,,,,,0.01
c1cc(-c2ccc3ncnc(Nc4ncco4)c3c2)cc(N2C[C@H]3C[C@@H]2CO3)c1,,human plasma,,,,,0.0089
CCCC[C@@H]1NC(=O)[C@H](Cc2ccc(O)cc2)NC(=O)[C@@H]2CCCN2C(=O)[C@H](CC(=O)O)NC(=O)[C@H](C)NC(=O)[C@H](Cc2ccccc2)NC(=O)[C@@H]2CSCCC(=O)N3CN(CN(C3)C(=O)CCSC[C@@H](C(=O)N[C@@H](C)C(N)=O)NC1=O)C(=O)CCSC[C@H](NC(=O)[C@H](C)NC(C)=O)C(=O)N[C@@H]([C@@H](C)CC)C(=O)N[C@@H](CCC(=O)O)C(=O)N[C@@H](CCC(=O)O)C(=O)N[C@H](CCCCNC(=O)CCc1cn(CCOCCOCCOCCN(CCOCCOCCOCCC(=O)N[C@H]3CSCCC(=O)N4CN5CN(C4)C(=O)CCSC[C@H](NC(=O)[C@@H](CC(=O)O)NC(=O)[C@H](Cc4cccc6ccccc46)NC(=O)[C@@H]4CCCN4C3=O)C(=O)N[C@@H](CCSC)C(=O)N[C@@H](CCCCNC(=N)N)C(=O)N[C@@H](CC(=O)O)C(=O)N[C@@H](Cc3c[nH]c4ccccc34)C(=O)N[C@@H](CO)C(=O)N[C@@H]([C@@H](C)O)C(=O)N3CCC[C@H]3C(=O)N3C[C@H](O)C[C@H]3C(=O)N[C@@H](Cc3c[nH]c4ccccc34)C(=O)N[C@H](C(N)=O)CSCCC5=O)CCOCCOCCOCCn3cc(CCC(=O)NCCCC[C@H]4NC(=O)[C@H](CCC(=O)O)NC(=O)[C@H](CCC(=O)O)NC(=O)[C@H]([C@@H](C)CC)NC(=O)[C@@H](NC(=O)[C@H](C)NC(C)=O)CSCCC(=O)N5CN6CN(C5)C(=O)CCSC[C@H](NC(=O)[C@H](Cc5ccc(O)cc5)NC(=O)[C@H](CCC(N)=O)NC4=O)C(=O)N[C@@H](Cc4ccccc4)C(=O)N[C@@H](C)C(=O)N[C@@H](CC(=O)O)C(=O)N4CCC[C@H]4C(=O)N[C@@H](Cc4ccc(O)cc4)C(=O)N[C@@H](CCCC)C(=O)N[C@H](C(=O)N[C@@H](C)C(N)=O)CSCCC6=O)nn3)nn1)C(=O)N[C@@H](CCC(N)=O)C(=O)N[C@@H](Cc1ccc(O)cc1)C(=O)N2,ultracentrifugation,rat plasma,,,,,0.2
CC(C)CC(=O)OC[C@H]1O[C@@](C#N)(c2ccc3c(N)ncnn23)[C@H](O)[C@@H]1O,,dog plasma,0.9 µM,,,,0.366
O=S(=O)(Cc1ccccc1)c1ccccc1O,,human plasma,,,,,0.02
C=CC(=O)N[C@H]1C=C(C)c2c(-c3cnc4ccccc4c3)c3c(N)ncnc3n2C1,equilibrium dialysis,rat plasma,5 µM,18 h,pH 7.4,,0.154 ± 0.03
O=c1ccc2ccccc2o1,,human plasma,,,,,0.31
CNC(C)Cc1ccc2c(c1)OCO2 (centres unmarked),rapid equilibrium dialysis,human plasma,25 ng/mL,,,,0.832
O=[PH](O)CCc1ccccc1,,human plasma,,,,,0.09
CC(C)N(CCC(C(N)=O)(c1ccccc1)c1ccccn1)C(C)C (centres unmarked),equilibrium dialysis,human plasma,,,,,0.161
CN1C(=O)Cc2ccc(F)c(CCNC[C@H]3CN(c4ccc5c(n4)NC(=O)CO5)C(=O)O3)c21,equilibrium dialysis,"human plasma, 10%",10 µM,18 h,,,0.02
O=c1[nH]c(CCc2ccccc2)no1,,human plasma,,,,,0.01
COc1ccc2cc1Oc1ccc(cc1)C[C@H]1c3cc(c(OC)cc3CCN1C)Oc1c(OC)c(OC)cc3c1[C@H](C2)N(C)CC3,,plasma,,,,,0.0573
N=C(CC(O)c1cc2c(F)cc(F)cc2c2cc(C(F)(F)F)ccc12)Nc1ccc(Br)cc1 (centres unmarked),equilibrium dialysis,human plasma,100 ng/mL,24 h,,0.9% saline dilution,0.001
Cn1c(=O)cnc2ccc(F)c(CCNC[C@H]3CN(c4cnc5c(n4)NC(=O)CO5)C(=O)O3)c21,equilibrium dialysis,"human plasma, 10%",10 µM,18 h,,,0.038
Cc1sc2c(c1C)C(c1ccc(Cl)cc1)=N[C@@H](CC(=O)Nc1ccc(O)cc1)c1nnc(C)n1-2,equilibrium dialysis,mouse brain homogenate,1 µM,6 h,pH 7.4,,0.0305 ± 0.0099
CS(=O)(=O)NC(=O)CCc1ccccc1,,human plasma,,,,,0.13
Cn1c(=O)ccc2ccc(F)c(CCNC[C@H]3CN(c4ncc5c(n4)NC(=O)CO5)C(=O)O3)c21,equilibrium dialysis,"human plasma, 10%",10 µM,18 h,,,0.086
